Measured values collected from several papers.
Parts stem from different laboratories: compare values within a part only. Positions count from the first letter of the parent shown.

Block 1
Target: Histone acetyltransferase KAT6A, both winged helices, GST fusion (KAT6A, Homo sapiens, UniProt Q92794, residues 1-181)
Method: protein binding microarray
Form: double-stranded DNA, one strand shown
Matrix: in vitro
Concentration: not given
Setting: 8-mer, flanks averaged, mean of 2 arrays, mostly near background
Reference: not given
Direction: higher = stronger binding
Construct (chain): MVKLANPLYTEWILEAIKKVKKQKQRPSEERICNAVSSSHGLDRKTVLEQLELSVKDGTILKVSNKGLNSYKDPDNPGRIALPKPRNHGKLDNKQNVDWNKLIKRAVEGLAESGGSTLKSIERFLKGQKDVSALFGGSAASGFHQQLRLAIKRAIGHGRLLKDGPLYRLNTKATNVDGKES
Sequence | E-score
GCGAACGC | 0.257
AACTCTGT | 0.0353
TATCGAAA | 0.0349
CAACTATG | -0.0305
AATGGTTC | 0.138
ACACGGCA | 0.252
ACTGGCCC | -0.251
CTGCGTTA | 0.0522
GACACGTA | -0.0275
CTGGCACC | -0.169
CACTATAC | -0.0947
CCTTTCTC | -0.182
GTTTGAGA | -0.122
AGTCTGGG | -0.259
CCCAGAAC | -0.142
CGGCACCA | 0.205

Block 2
Target: Ras GTPase-activating protein-binding protein 1, full length (G3BP1, Homo sapiens, UniProt Q13283)
UniProt Q13283, sequence (whole entry, looked up): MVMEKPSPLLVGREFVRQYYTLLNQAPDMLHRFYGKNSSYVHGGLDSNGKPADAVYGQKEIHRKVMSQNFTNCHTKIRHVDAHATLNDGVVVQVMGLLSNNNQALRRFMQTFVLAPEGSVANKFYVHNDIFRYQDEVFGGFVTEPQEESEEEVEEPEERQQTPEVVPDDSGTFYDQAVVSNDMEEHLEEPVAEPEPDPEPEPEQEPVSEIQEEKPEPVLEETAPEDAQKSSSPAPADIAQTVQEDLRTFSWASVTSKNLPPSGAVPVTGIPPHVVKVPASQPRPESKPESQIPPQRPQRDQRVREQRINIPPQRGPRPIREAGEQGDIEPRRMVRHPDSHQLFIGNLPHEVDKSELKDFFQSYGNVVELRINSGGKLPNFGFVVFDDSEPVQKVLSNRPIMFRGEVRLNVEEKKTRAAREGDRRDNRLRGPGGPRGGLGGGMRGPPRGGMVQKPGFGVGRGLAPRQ
Method: RNA Bind-n-Seq
Form: RNA
Matrix: in vitro
Concentration: 200 nM
Setting: whole 134-nt RNA, ends assumed
Together with: 150 mM LiCl
Reference: input library
Direction: higher = stronger binding
Library: 7-deaza-guanosine replaces G
Sequence | log2 enrichment
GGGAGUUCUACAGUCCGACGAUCCUGUGCUACACAUCGUAUGUACCGAAUCGGGGUUUUUGGGGUUUUUGGGGAAAAAAAGGGGAAAGUAUUAUGUUACGCCGUUCGGAUCUGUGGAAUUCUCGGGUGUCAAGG | 0.673
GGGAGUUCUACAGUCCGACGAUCAGUCCUGUGCUACACAUCGUAUGUACCGAAUCGGGUUUUUGGGAAAGGGUUUUUGGGAAAGUAUUAUGUUACGCCGUUCGGAUCUGCACUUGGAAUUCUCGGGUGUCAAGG | -2.12
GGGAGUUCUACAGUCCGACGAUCGCAGGAAGUAAAAACAAAUGGAAAAGCUUCGGAUAGUGGCAGGGGUGGGGGUUGCUAAGGAAAGGGUGGGAUGGGAGUGGGUAAAGAGUUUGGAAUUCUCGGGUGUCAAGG | -0.112
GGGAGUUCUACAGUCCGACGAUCCAAGUCCUGUGCUACACAUCGUAUGUACCGAAUCGGGCCCGGCCCGGGGCCCGGGGAAAGUAUUAUGUUACGCCGUUCGGAUCUGCACUUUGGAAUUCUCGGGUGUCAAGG | -1.93
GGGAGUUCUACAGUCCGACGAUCUCCUGUGCUACACAUCGUAUGUACCGAAUCGGGAAAAAAAGGGUUUUUUUGGGUUUGGGAAAGUAUUAUGUUACGCCGUUCGGAUCUGCAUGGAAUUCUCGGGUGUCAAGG | -1.87
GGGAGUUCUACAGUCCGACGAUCCAAGUCCUGUGCUACACAUCGUAUGUACCGAAUCGGUUUUUGGUUUUUUUGGAGGAAAGUAUUAUGUUACGCCGUUCGGAUCUGCACUUCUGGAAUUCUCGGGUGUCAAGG | -0.149
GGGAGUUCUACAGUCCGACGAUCCCUCAAGUCCUGUGCUACACAUCGUAUGUACCGAAUCGGCGGGCGGGGCGGGAAAGUAUUAUGUUACGCCGUUCGGAUCUGCACUUCCAGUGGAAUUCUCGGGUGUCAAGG | 0.541
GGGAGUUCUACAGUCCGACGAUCUGGGAGGUGAAUUUUGUUUAUUUUUUUAGCUCAUUUCCAGGGGUGGGAAUUUUUUUUUAAUAUGUGUCAUGAAUAAAGUUGUUUUUGAAAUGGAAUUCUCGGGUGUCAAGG | -0.647
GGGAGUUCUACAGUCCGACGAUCUGGCCUUAUCACUCCUGGAGGCUUUUCAUCAGUGCCUGCUGGAAUGGAGACCCCUGAACUCAUUGAGCUGAGGAAGAAGAAGAUUGAGGAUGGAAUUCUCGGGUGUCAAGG | -0.659
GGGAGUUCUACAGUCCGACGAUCUAACUUUAGAGGAGGAUCUGAUGGAUAUGGCAGUGGACGUGGAUUUGGGGGUGGCUAUAAUGGGUAUGGAGGAGGACCUGGAGGUGGCAAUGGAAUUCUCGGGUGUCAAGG | -0.0502
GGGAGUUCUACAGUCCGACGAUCUCCUCAAGUCCUGUGCUACACAUCGUAUGUACCGAAUCGGGUGGUGGUGGGAAAGUAUUAUGUUACGCCGUUCGGAUCUGCACUUCCAGCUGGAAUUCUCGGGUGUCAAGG | 0.228

Block 3
Target: CCNB2, cyclin fold, Cln2 fusion (human)
Method: yeast growth competition, sequencing
Matrix: yeast
Setting: weak parent motif
Reference: not given
Direction: higher = stronger binding
Starting sequence: ORC1 docking peptide (human); PRARKRLELGNLG; partner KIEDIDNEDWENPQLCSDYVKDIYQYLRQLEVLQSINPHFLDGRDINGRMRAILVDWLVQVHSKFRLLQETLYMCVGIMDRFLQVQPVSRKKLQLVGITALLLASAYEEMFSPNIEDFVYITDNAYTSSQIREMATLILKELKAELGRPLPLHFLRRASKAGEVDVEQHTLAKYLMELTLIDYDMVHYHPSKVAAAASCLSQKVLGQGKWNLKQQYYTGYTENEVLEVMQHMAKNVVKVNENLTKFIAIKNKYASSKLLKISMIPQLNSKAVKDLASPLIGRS
Variant | normalised enrichment score
E8F | 0.501
A3R | 0.284
P1L | 0.417
R4N | 0.406
L12Q | 0.293
R4D | 0.0258
A3F | 0.646
P1S | -0.0209
L7T | -0.273
G10Y | 1.68
G10K | 0.272
L7A | 0.366
L12G | 0.21
R4P | 0.298
R2P | 0.149
L7R | 0.795
N11W | 0.327
E8Q | 0.944
R6L | 1.29
R4K | 0.331

Block 4
Target: RNA binding protein fox-1 homolog 2, RRM domain, GST-SBP tag (RBFOX2, Homo sapiens, UniProt O43251-10, residues 100-194)
Method: RNA Bind-n-Seq
Form: RNA
Matrix: in vitro
Concentration: 365 nM
Setting: natural RNA segment, single round, ends assumed
Reference: no-protein control
Direction: higher = stronger binding
Construct (chain): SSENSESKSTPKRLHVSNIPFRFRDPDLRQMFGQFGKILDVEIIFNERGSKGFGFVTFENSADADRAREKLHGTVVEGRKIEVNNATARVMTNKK
Sequence | RBNS enrichment (R)
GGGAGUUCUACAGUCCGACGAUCCCGCAGCGAAGCUGCCGUUCAUGUGUUGGAGGCCAAAUGUGGCAAACCAACCCCAGGCCCACCCAGAGCGAGCAAACGCUGAGACCUGAAAGGACAUGGAUGAGAAGAGGUGGAAUUCUCGGGUGCCAA | 0.386
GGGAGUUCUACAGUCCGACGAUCGUGGAGAAAACAUUUUCAUGCCUAAAAAUGUCUUUGAGAUAAUGCCAAUUCUGAUGUCCCUUACCUUUUGGCCAAGAAGUUUGAGAUUUUUUCAGCUAAUUUGUUAUUUGUGGAAUUCUCGGGUGCCAA | 0.511
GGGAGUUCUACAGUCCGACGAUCGAAAAUGCAGAUUUGGGGACAAAGGUCUUUUUACUGCUCAAGUAGGGUCGCUUCUGUCCUGUUGCAAUCAUGUCCAAGUUUGUUUUUAGUGUGGACUUUUGUGGGCACUGUGGAAUUCUCGGGUGCCAA | 0.947
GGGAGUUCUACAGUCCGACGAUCCAGUGAGGAAAGGCUGCUGUCAUGGUGUGGCCCUGCCUCACUGUCAAUAUCUGUUUUCUCUGGAGAGUCCACCAGUGACCCAAGCUCUCCCUGCCAGCCUCCUGUGUCAAUGGAAUUCUCGGGUGCCAA | 0.354
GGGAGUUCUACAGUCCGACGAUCUCAGUGCUAGGUUGACAGGUGGGCGUCGCCAUGCCUGGACCAAUUCCUGCACAGCACAGGAAGGCUCCACUCCAUGAAGGAGUGCAUUUAGAAUGGCAUCCUGGUCCUGGUGGAAUUCUCGGGUGCCAA | 0.356
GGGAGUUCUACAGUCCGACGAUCUUUACUUGAAGACUGUGAAGUUGCCAUUUUGUCUCAUUGUUUUCUUUGACAUAACUAGGAUCCAUUAUUUCCCCUGAAGGCUUCUUGUUAGAAAAUAGUACAGUUACAACUGGAAUUCUCGGGUGCCAA | 0.514
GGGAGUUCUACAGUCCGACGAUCAGACCUGGGUGUAUUUGCACUUUGGGGCCCUGUUGCUAGCCAUCUUGUGAGUGCCAAUGUAUAAUGCAGUAAAGACUACAUGGAAACACAAACUCAGUCCUUAAAACCCCUGGAAUUCUCGGGUGCCAA | 0.381
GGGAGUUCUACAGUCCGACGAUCAACUAAAUAGAAAGCUAGUUGUUCCGCAGAUAGGAGUAGUCUUUAUUGUCCUGUACGGUCGGUGGCAGUGCUAUUCUGAGAUCUGUAGAUGCUUAGAAUAUCAGUAUUUUUGGAAUUCUCGGGUGCCAA | 0.526
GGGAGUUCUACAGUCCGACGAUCGAAACAAAGAUUUUAAGCCUUCUUCUUUUUUUCUUUUUUCUUUUUUUUUUGAGACCAAGUCUCACUCUGUUGCCCAGGCUGGAGUGCAGUGGCACGAUCUUGGCUUACUGUGGAAUUCUCGGGUGCCAA | 2.06
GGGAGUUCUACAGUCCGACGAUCUGCUGUGCUUCCGGGCAGUGCCAGGCACUCCCUUGUGGGGCUCAUGCUCCUUCUACCUACCGGUCAGUGCAUUCAGAAGUGGACAGCUCCCGGAAGGCCGAGUUCUGGUAUGGAAUUCUCGGGUGCCAA | 0.403
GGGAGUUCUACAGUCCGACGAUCGCUCCCUGCCAGCCUCCAGUGGCCUGGCCAGGCCCUCCCGAGCCUGUCUGCCCUCCCCAGGGGUGGAGGAGUCUCUGGGCCCCAGGAGGAUUCCCUCCCGGAGACUCGCAUGGAAUUCUCGGGUGCCAA | 0.701
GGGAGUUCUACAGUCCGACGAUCCACUCCUGCUGGAUGUCCAGGCGGCCUUGGGAGGCCCAGCCCUGGGCCUGCCUGGGGCUUUAACCAUUUAUAGCACUCCUGAGAGCCGGACUGCCUCCUACUUGGGCCCGUGGAAUUCUCGGGUGCCAA | 0.245

Some of these lines once more (block 2):
Sequence | log2 enrichment
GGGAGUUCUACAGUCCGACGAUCGCAGGAAGUAAAAACAAAUGGAAAAGCUUCGGAUAGUGGCAGGGGUGGGGGUUGCUAAGGAAAGGGUGGGAUGGGAGUGGGUAAAGAGUUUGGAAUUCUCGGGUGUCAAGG | -0.112
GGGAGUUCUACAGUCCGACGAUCCAAGUCCUGUGCUACACAUCGUAUGUACCGAAUCGGGCCCGGCCCGGGGCCCGGGGAAAGUAUUAUGUUACGCCGUUCGGAUCUGCACUUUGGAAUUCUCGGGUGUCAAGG | -1.93
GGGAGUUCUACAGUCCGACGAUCUCCUGUGCUACACAUCGUAUGUACCGAAUCGGGAAAAAAAGGGUUUUUUUGGGUUUGGGAAAGUAUUAUGUUACGCCGUUCGGAUCUGCAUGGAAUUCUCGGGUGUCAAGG | -1.87
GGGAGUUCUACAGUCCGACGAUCCAAGUCCUGUGCUACACAUCGUAUGUACCGAAUCGGUUUUUGGUUUUUUUGGAGGAAAGUAUUAUGUUACGCCGUUCGGAUCUGCACUUCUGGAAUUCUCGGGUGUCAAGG | -0.149
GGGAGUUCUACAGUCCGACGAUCCCUCAAGUCCUGUGCUACACAUCGUAUGUACCGAAUCGGCGGGCGGGGCGGGAAAGUAUUAUGUUACGCCGUUCGGAUCUGCACUUCCAGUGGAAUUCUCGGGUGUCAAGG | 0.541
